Assay results pooled from the literature.
Lines come from different studies, so protocols differ. In brackets after ≈: the same amount, converted by molar mass.
CIT: Citron Rho-interacting kinase (CIT, Homo sapiens, UniProt O14578)
UniProt O14578, sequence (whole entry, looked up): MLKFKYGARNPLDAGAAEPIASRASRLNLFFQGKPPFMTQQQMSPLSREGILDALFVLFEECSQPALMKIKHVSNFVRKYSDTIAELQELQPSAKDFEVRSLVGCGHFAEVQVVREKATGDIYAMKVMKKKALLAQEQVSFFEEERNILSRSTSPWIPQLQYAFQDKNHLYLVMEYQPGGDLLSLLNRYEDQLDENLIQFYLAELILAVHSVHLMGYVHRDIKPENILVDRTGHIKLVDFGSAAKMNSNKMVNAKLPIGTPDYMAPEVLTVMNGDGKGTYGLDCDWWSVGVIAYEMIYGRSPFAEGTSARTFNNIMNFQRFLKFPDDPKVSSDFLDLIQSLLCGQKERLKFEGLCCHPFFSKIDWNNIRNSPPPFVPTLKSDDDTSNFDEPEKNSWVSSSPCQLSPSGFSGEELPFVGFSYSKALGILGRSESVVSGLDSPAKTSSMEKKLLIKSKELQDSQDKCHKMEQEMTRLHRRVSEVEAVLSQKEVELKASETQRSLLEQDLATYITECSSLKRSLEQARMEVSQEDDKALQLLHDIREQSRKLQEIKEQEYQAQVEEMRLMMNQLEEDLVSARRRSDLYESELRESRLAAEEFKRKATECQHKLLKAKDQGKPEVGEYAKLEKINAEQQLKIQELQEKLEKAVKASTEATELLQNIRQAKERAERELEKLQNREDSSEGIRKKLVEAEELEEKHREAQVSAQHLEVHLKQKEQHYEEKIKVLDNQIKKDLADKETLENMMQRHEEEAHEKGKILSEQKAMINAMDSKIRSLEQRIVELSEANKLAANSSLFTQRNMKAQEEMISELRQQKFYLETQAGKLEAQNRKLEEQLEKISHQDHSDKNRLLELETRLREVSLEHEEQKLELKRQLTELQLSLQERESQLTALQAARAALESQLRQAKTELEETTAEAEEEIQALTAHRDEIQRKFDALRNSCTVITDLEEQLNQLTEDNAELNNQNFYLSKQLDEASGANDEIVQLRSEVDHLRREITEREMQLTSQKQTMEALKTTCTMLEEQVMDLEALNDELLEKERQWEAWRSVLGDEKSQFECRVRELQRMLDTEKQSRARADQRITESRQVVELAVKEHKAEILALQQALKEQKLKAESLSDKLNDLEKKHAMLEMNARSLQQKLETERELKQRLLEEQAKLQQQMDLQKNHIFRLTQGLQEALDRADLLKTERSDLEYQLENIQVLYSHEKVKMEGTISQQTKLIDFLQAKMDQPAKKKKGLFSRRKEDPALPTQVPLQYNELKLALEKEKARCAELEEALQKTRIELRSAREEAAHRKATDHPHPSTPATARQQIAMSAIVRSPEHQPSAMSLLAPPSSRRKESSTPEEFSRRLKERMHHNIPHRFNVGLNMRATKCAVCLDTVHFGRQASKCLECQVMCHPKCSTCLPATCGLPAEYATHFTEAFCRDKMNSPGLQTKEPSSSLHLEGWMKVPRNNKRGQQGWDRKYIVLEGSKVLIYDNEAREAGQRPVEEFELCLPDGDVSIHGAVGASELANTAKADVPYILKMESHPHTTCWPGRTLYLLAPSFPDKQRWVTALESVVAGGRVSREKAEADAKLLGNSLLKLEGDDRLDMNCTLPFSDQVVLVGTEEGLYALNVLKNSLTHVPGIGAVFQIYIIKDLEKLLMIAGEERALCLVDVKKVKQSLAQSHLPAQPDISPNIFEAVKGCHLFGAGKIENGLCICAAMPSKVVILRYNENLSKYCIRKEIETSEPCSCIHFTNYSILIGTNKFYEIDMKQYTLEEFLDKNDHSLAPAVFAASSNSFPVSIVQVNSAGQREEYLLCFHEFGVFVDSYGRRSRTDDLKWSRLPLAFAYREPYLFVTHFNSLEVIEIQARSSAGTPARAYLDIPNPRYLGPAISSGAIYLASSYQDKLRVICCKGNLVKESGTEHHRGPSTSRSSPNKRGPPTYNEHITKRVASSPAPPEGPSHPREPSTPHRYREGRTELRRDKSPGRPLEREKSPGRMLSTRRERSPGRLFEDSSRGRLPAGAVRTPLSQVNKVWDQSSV
UniProt O14733, sequence (whole entry, looked up): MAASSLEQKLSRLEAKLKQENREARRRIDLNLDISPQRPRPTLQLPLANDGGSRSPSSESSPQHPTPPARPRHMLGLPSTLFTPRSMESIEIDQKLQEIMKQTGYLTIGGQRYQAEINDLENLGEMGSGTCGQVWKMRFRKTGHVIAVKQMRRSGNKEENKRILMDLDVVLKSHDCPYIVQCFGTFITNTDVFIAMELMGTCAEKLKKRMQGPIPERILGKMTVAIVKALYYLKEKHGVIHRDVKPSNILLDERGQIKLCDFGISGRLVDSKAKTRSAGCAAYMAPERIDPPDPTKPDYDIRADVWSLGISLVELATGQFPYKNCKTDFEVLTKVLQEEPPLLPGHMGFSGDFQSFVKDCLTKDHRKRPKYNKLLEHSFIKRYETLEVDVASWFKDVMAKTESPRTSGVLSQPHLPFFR
UniProt Q52WX2, sequence (whole entry, looked up): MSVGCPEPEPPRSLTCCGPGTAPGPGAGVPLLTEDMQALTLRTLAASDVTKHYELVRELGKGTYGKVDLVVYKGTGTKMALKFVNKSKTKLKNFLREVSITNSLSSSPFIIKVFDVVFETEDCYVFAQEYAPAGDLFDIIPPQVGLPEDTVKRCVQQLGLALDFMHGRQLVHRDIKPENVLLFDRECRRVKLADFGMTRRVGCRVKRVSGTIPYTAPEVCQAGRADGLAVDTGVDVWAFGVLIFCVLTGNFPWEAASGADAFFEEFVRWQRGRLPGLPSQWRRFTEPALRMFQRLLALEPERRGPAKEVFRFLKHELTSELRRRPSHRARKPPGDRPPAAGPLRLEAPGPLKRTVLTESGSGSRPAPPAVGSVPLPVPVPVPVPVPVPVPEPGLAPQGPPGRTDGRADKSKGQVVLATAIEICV
UniProt P10632, sequence (whole entry, looked up): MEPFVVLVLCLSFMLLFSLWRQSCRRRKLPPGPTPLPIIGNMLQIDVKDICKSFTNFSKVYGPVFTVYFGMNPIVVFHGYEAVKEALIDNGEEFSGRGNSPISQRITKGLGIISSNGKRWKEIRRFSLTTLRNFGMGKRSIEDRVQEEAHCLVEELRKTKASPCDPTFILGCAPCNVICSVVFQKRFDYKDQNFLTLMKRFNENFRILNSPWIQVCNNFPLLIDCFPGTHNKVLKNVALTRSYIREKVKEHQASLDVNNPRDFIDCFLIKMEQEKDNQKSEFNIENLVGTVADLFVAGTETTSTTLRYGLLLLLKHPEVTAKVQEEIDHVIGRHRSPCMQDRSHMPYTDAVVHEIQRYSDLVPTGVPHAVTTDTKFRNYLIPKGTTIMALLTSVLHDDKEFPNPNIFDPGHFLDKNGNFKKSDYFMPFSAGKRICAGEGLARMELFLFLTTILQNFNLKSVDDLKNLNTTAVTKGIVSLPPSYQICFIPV
UniProt P05182, sequence (whole entry, looked up): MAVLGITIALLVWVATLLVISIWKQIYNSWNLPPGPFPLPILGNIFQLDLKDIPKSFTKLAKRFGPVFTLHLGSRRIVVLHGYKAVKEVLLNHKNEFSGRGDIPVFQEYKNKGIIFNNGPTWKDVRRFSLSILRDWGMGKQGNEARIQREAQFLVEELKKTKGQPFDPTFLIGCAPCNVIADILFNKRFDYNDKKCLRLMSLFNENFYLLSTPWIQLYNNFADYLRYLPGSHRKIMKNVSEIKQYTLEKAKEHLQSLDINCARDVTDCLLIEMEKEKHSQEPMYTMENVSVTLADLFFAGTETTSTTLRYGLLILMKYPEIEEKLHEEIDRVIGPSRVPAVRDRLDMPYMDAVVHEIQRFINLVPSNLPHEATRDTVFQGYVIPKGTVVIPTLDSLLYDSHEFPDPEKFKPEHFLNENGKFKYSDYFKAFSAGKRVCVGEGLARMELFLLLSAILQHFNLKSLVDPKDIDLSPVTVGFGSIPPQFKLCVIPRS

Structure (SMILES) | tested on | test | system | conditions | endpoint | result
CCC[C@@](N)(CO)CCc1ccc(OCCCCCC(C)C)cc1 | Cytochrome P450 2C8 (CYP2C8, Homo sapiens, UniProt P10632) | enzyme activity, inhibitor |  |  | IC50 | 39.7 µM
CCC[C@H](NC(=O)/C=C/c1ccccc1)C(=O)N[C@@H](CC(C)C)C(=O)N[C@H](C=O)C[C@@H]1CCCNC1=O | A549 | cell growth or viability, MTT |  | 24 h | CC50 | > 100 µM
Cc1nn(C)cc1-c1nc2c(N3CCN(Cc4ccc(Cl)cc4)CC3)c(Cl)cnc2[nH]1 | CIT | binding, competition with immobilised ligand |  | 1 µM | remaining binding | 83%
CC(C)(C)[C@H](NC(=O)/C=C/c1ccccc1)C(=O)N[C@H](C=O)C[C@@H]1CCCNC1=O | A549 | cell growth or viability, MTT |  | 24 h | CC50 | > 100 µM
COc1ncccc1-c1cnn2ccc(N3CCN(C(=O)OC(C)C)CC3)nc12 | CIT | binding, competition with immobilised ligand |  | 1 µM | remaining binding | 92%
COCC1=N[C@@]2(O)[C@H](C(=O)N(C)OC)[C@@H](c3ccccc3)[C@]3(c4ccc(OC)cc4)Oc4cc(OC)cc(OC)c4[C@]23N1 | A549-ACE2 | cell growth or viability, ATP luminescence |  | 48 h | CC50 | 0.2 µM
CC(C)C[C@H](NC(=O)[C@H](Cc1ccccc1)NC(=O)[C@H](Cc1ccccc1)NC(=O)Cc1ccc(-c2ccccc2)cc1)C(=O)N[C@@H](CCCCN)C(=O)N[C@@H](CCCNC(=N)N)C(=O)N[C@H](C(=O)N[C@@H](Cc1c[nH]c2ccccc12)C(=O)N[C@@H](CCCCN)C(=O)N[C@@H](CCCNC(=N)N)C(=O)O)C(C)C |  | metabolic stability | rat, liver microsomes | 15 min | compound remaining | 38.4%
CC[C@@H]1NC(=O)[C@H]([C@@H](C)CC)NC(=O)[C@H](CC(C)C)NC(=O)[C@@H]2CCCN2C(=O)[C@@H](CC(C)C)NC(=O)[C@H]2CCCN2C(=O)[C@@H](Cc2ccc(O)cc2)NC(=O)CSC[C@@H](C(=O)O)NC(=O)[C@H]([C@@H](C)O)NC(=O)[C@H]([C@@H](C)CC)NC(=O)[C@H](C)NC1=O |  |  | aqueous buffer | pH 7.4 | solubility | 777 µM (≈ 955 µg/mL)
CONC(=O)[C@H]1[C@@H](O)[C@@]2(O)c3c(OC)cc(OC)cc3O[C@@]2(c2ccc(OC)cc2)[C@@H]1c1ccccc1 | A549-ACE2 | cell growth or viability, ATP luminescence |  | 48 h | CC50 | 0.2 µM
O=C1CC[C@H](N2Cc3c(ccc4c3OCC43CCN(C[C@@H]4CCC5(CCN(c6ccc([C@@H]7c8ccc(O)cc8CC[C@@H]7c7ccccc7)cc6)CC5)OC4)CC3)C2=O)C(=O)N1 |  |  | rat, plasma | intravenous, 1 mg/kg | clearance | 0.582 L/h/kg
N=c1c2c(-c3ccccc3)c(-c3ccccc3)n(Cc3ccccc3)c2ncn1[C@H]1CC[C@H](O)CC1 |  |  | female minipig, plasma | oral, 2.5 mg/kg, single dose | AUC(0-t) | 73.5 µg·h/mL
COc1ccc([C@@]23Oc4cc(OC)cc(OC)c4[C@@]24N=C(C2CC2)N[C@@]4(O)[C@H](C(=O)N(C)OC)[C@H]3c2ccccc2)cc1 | A549-ACE2 | cell growth or viability, ATP luminescence |  | 48 h | CC50 | 0.2 µM
O=C[C@H](C[C@@H]1CCCNC1=O)NC(=O)[C@@H](NC(=O)/C=C/c1ccccc1)c1ccccc1 | A549 | cell growth or viability, MTT |  | 24 h | CC50 | > 100 µM
CC(C)C[C@H]1C(=O)N(C)[C@@H](CC(C)C)C(=O)N[C@H](Cc2ccc(O)cc2)C(=O)N2CCC[C@@H]2C(=O)N[C@H]([C@H](C)O)C(=O)NCC(=O)NCC(=O)N[C@@H](CO)C(=O)N[C@@H](C(C)C)C(=O)N[C@@H](C)C(=O)N[C@@H](C)C(=O)N[C@@H](Cc2ccccc2)C(=O)N1C |  |  | aqueous buffer | 18 h, pH 7.4 | thermodynamic solubility | 590 µM (≈ 711 µg/mL)
CC(C)C[C@H](NC(=O)/C=C/c1ccccc1)C(=O)N[C@H](C=O)C[C@@H]1CCCNC1=O | A549 | cell growth or viability, MTT |  | 24 h | CC50 | > 100 µM
Cc1ncc2n1-c1ccc(Cl)cc1C(c1ccccc1F)=NC2 |  | metabolic stability | monkey, hepatocytes | 1 µM, 4 h | compound remaining | 4%
CN1CC[C@]23c4c5ccc(O)c4O[C@H]2c2[nH]c4ccccc4c2C[C@@]3(O)[C@H]1C5 |  |  | pig, plasma | intravenous, 30 µg/kg | half-life | 2.68 h

Structure (SMILES) | tested on | test | system | conditions | endpoint | result
COc1ccc([C@@]23Oc4cc(OC)cc(OC)c4[C@@]24NC(C)=N[C@@]4(O)[C@H](C(=O)N(C)OC)[C@H]3c2ccccc2)cc1 |  | metabolic stability | mouse, liver microsomes |  | half-life | 0.085 h
Nc1ncc(-c2nc(N3CCOCC3)nc(N3CCOCC3)n2)c(C(F)F)n1 | MAP2K7 (Homo sapiens, UniProt O14733) | binding, competition with immobilised ligand |  | 10 µM | remaining binding | 61%
CCOC(=O)C1=C(CN2CCCC2C(=O)Nc2cccc(B(O)O)c2)NC(c2nccs2)=NC1c1ccc(F)cc1Br (stereo not drawn) | HepDES19 | cell growth or viability, MTS |  | 72 h | CC50 | 37 µM
C#Cc1ccc2c(c1)C(c1ccccn1)=NCc1c(-c3cnco3)ncn1-2.Cl |  |  | water | 20 min, 37 °C | kinetic solubility | 2.8 mg/mL
CC[C@@H](C)[C@H]1NC(=O)[C@@H]2CCCN2C(=O)[C@H](CO)NC(=O)[C@H](CC(C)C)NC(=O)[C@H](C(C)C)NC(=O)CN(C)C(=O)[C@@H](Cc2ccc(O)cc2)NC(=O)[C@@H](Cc2ccc(O)cc2)NC(=O)CSC[C@@H](C(=O)O)NC(=O)[C@@H](CC(C)C)NC1=O |  |  | aqueous buffer | pH 7.4 | solubility | 814 µM (≈ 962 µg/mL)
C=CC1CO1 (stereo not drawn) | Cytochrome P450 2E1 (Cyp2e1, Rattus norvegicus, UniProt P05182) | enzyme activity, inhibitor | rat, liver microsomes |  | IC50 | 98 µM
CC[C@H](C)[C@H]1C(=O)N[C@@H](Cc2ccc(O)cc2)C(=O)N2CCC[C@H]2C(=O)N[C@H]([C@H](C)O)C(=O)N[C@@H](CC(C)C)C(=O)N[C@@H](C(C)C)C(=O)N[C@@H](C)C(=O)N[C@@H](C)C(=O)N[C@@H](CO)C(=O)N[C@@H](Cc2ccccc2)C(=O)NCC(=O)N[C@H](C(=O)O)CSSC[C@H](N)C(=O)N1C |  |  | aqueous buffer | 18 h, pH 7.4 | thermodynamic solubility | 842 µM (≈ 1140 µg/mL)
CN[C@@H]1C[C@H]2O[C@@](C)([C@@H]1OC)n1c3ccccc3c3c4c(c5c6ccccc6n2c5c31)C(=O)NC4 | NCI-H1975 | cell growth or viability, MTT |  | 0.4 µg | viability | 70.8%
CC[C@@H](C)[C@H]1NC(=O)[C@@H](Cc2ccc(O)cc2)NC(=O)[C@@H](CCCNC(=N)N)NC(=O)[C@@H](Cc2ccc(O)cc2)NC(=O)[C@H]([C@@H](C)CC)NC(=O)[C@H]([C@@H](C)CC)NC(=O)[C@H](C)NC(=O)[C@H](C(C)C)NC(=O)[C@H](C(C)C)NC(=O)CNC(=O)[C@H](C(C)C)NC1=O |  |  | aqueous buffer | 18 h, pH 7.4 | thermodynamic solubility | 238 µM (≈ 297 µg/mL)
CC(C)C[C@H](NC(=O)[C@@H](NC(=O)/C=C/c1ccc(C(C)C)cc1)C(C)C)C(=O)N[C@H](C=O)C[C@@H]1CCCNC1=O | A549 | cell growth or viability, MTT |  | 24 h | CC50 | > 100 µM
CC[C@H](C)[C@H]1C(=O)N[C@@H]([C@@H](C)O)C(=O)NCC(=O)NCC(=O)N[C@@H](C)C(=O)N[C@@H](CC(C)C)C(=O)N[C@@H](C(C)C)C(=O)N[C@@H](CC(C)C)C(=O)N2CCC[C@@H]2C(=O)N[C@H](Cc2ccc(O)cc2)C(=O)N[C@H](CC(C)C)C(=O)N1C |  |  | aqueous buffer | 18 h, pH 7.4 | thermodynamic solubility | 475 µM (≈ 528 µg/mL)
[2H]c1c([2H])c([C@]2([2H])CCCN2C(=O)C(C)(C)Oc2ccc3cn[nH]c3c2)c([2H])c([2H])c1C([2H])([2H])[2H] | SBK1 (Homo sapiens, UniProt Q52WX2) | binding, competition with immobilised ligand |  | 1 µM | remaining binding | 95%
CC[C@H](C)[C@H]1C(=O)N2CCC[C@H]2C(=O)N[C@@H](CO)C(=O)N[C@H]([C@H](C)O)C(=O)N[C@H](Cc2ccc(O)cc2)C(=O)N[C@@H](CC(C)C)C(=O)NCC(=O)N[C@@H](C(C)C)C(=O)N[C@@H](C)C(=O)N[C@@H](Cc2ccccc2)C(=O)N2CCC[C@H]2C(=O)N1C |  |  | aqueous buffer | 18 h, pH 7.4 | thermodynamic solubility | 585 µM (≈ 679 µg/mL)
OC(c1ccc(F)cc1)C(F)(F)CCN1CCC(O)(c2ccc(Cl)cc2)CC1 (racemic) | MDR1 |  | MDCK-MDR1 | 2 h | Papp A→B | 94 nm/s
CC(C)C[C@@H]1NC(=O)[C@@H](CCCNC(=N)N)NC(=O)[C@@H](Cc2ccc(O)cc2)NC(=O)[C@H]2CCCN2C(=O)[C@H](CC(C)C)NC(=O)[C@H](CC(C)C)NC(=O)[C@@H]2CCCN2C(=O)[C@H]([C@@H](C)O)NC(=O)[C@H]([C@@H](C)O)NC(=O)CNC(=O)CNC1=O |  |  | aqueous buffer | 18 h, pH 7.4 | solubility | 603 µM (≈ 705 µg/mL)
CC(C)C[C@H](NC(=O)[C@@H](NC(=O)/C=C/c1ccc(-c2ccccc2)cc1)C(C)C)C(=O)N[C@H](C=O)C[C@@H]1CCCNC1=O | A549 | cell growth or viability, MTT |  | 24 h | CC50 | > 100 µM

For quick reference, copied from above:
Structure (SMILES) | tested on | test | system | conditions | endpoint | result
CN1CC[C@]23c4c5ccc(O)c4O[C@H]2c2[nH]c4ccccc4c2C[C@@]3(O)[C@H]1C5 |  |  | pig, plasma | intravenous, 30 µg/kg | half-life | 2.68 h
COc1ccc([C@@]23Oc4cc(OC)cc(OC)c4[C@@]24NC(C)=N[C@@]4(O)[C@H](C(=O)N(C)OC)[C@H]3c2ccccc2)cc1 |  | metabolic stability | mouse, liver microsomes |  | half-life | 0.085 h
